# Assay results collected from several papers.
# Protocols differ between the studies behind these lines. Numbers after ± are the reported error.
SMILES,system,setting,tissue uptake [%ID/g]
N=C(N)NCc1ccc(C(=O)NCCCC[C@H](NC(=O)N[C@@H](CCC(=O)O)C(=O)O)C(=O)O)cc1[131I],"SCID mouse, PC-3 xenografts, spleen",2 h,7.31 ± 3.73
CCNc1cc2[o+]c3cc(NCC)c(C)cc3c(-c3ccccc3C(=O)OCCOCC[18F])c2cc1C,"rat, skin",15 min,0.13 ± 0.04
C=Cc1cc(O)cc2nc(-c3ccc(O)c([76Br])c3)oc12,"female C57BL/6 mouse, uterus","3 h, high dose, together with: estradiol 20 µg blocking",0.13 ± 0.02
COc1cc2ccnc(Cc3ccc(O[11CH3])c(OC)c3)c2cc1OC,"Sprague-Dawley rats, blood","intravenous, 0.5 h",0.108 ± 0.02
CCCC[C@H](NC(=O)CN1CCC(NC(=O)CN2CCC(NC(=O)CN3CCN(CC(=O)O)CCN(CC(=O)O)CCN(CC(=O)O)CC3)CC2)CC1)C(=O)N[C@H]1CC(=O)NCCCC[C@@H](C(N)=O)NC(=O)[C@H](Cc2c[nH]c3ccccc23)NC(=O)[C@H](CCCNC(=N)N)NC(=O)[C@@H](Cc2ccccc2)NC(=O)[C@H](Cc2c[nH]cn2)NC1=O [gallium-68 labelled],"C57BL/6J mice male B16-F10 tumour, spleen","1 h post injection, unblocked",0.2
"O=C(c1ccc(F)cc1)C1CCN(C2Cc3c(cccc3OCC[18F])CC2O)CC1 (single isomer, unassigned; (-))","Sprague-Dawley rat, male, lung","intravenous, dose not given, 120 min",0.551 ± 0.07
N=C(N)NCc1ccc(C(=O)NCCCC[C@H](NC(=O)N[C@@H](CCC(=O)O)C(=O)O)C(=O)O)cc1[211At],"SCID mouse, PC-3 xenografts, muscle",1 h,0.56 ± 0.05
COc1ccc(C)cc1NC(=O)OC1CC2CCCC(C1)N2Cc1ccc(CC[18F])cc1 (stereo not shown),"BALB/c mice, EMT6 tumour, kidney",30 min,16.3 ± 1.35
CN[C@](C)(C[18F])C(=O)O,"SCID mouse U87 xenograft, heart","120 min, post injection",3.3 ± 1
N=C(N)NCc1ccc(C(=O)NCCCC[C@H](NC(=O)CCCCCCC(=O)NCCCC[C@H](NC(=O)N[C@@H](CCC(=O)O)C(=O)O)C(=O)O)C(=O)O)cc1[131I],"SCID mouse, PC-3 xenografts, liver",21 h,0.24 ± 0.39

# Some of these lines once more:
SMILES,system,setting,tissue uptake [%ID/g]
N=C(N)NCc1ccc(C(=O)NCCCC[C@H](NC(=O)CCCCCCC(=O)NCCCC[C@H](NC(=O)N[C@@H](CCC(=O)O)C(=O)O)C(=O)O)C(=O)O)cc1[131I],"SCID mouse, PC-3 xenografts, liver",21 h,0.24 ± 0.39
